Results of several laboratories.
“And” joins repeats or separate records; there may be more than shown. ± marks the error that the study gave.

`O=C(/C=C/C=C/C=C/C1CCCCC1)NC1=C[C@@](O)(/C=C/C=C/C=C/C(=O)NC2=C(O)CCC2=O)[C@@H]2O[C@@H]2C1=O` has a GI50 of 17.4 µM (SK-MEL3; cell growth, CellTiter-Glo; 78 h).
Under “log2 fold change”, `CCCCc1nc(Cl)c(CO)n1Cc1ccc(-c2ccccc2-c2nn[nH]n2)cc1` is recorded as -1.62 (human PBMC; RNA-seq, refers to: ASRGL1 mRNA; 10 µg/mL, 24 h; reference: untreated control).
For `Nc1ncnc2c1ncn2[C@@H]1O[C@H](CO)[C@@H](O)[C@H]1O`, “T cell proliferation” read 64.6 a.u. and 67.8 a.u. and 65 a.u. (activated human T cells; 3.16 µM; higher = more proliferation).
The EC50 of `CCn1cc(-c2cc(Cn3ccoc3=N)cc3c2CCN([C@@H](C)c2cc(OC)ccn2)C3=O)c(C(F)(F)F)n1` is reported as 2.65 µM (PLC-PRF-5; cell growth, inhibitor; 120 h).
The fold change of `C=CC1=C(C)c2cc3[n-]c(cc4nc(cc5[n-]c(cc1n2)c(C)c5C=C)C(C)=C4CCC(=O)O)c(CCC(=O)O)c3C.[Zn+2]` is reported as 2.14 (SH-SY5Y; RNA-seq, refers to: ELL2 mRNA; 5 µM, 5 h; reference: untreated cells).
With `O=C(Nc1ccc([C@H]2[C@@H](F)[C@@H](F)C[C@@H](F)[C@H]2F)cc1)c1cn[nH]c1` the hepatic clearance was 82 mL/min/kg (mouse liver microsomes; 1 µM).
`CCCCN1C[C@H](O)[C@@H](O)[C@@H](O)[C@H]1CO` gave an IC50 of 9.9 µM (sample D patient fibroblasts; Gb3 level lowering, LC-MS/MS, refers to: Gb3 d18:1/18:0; 216 h).
`CN(C)C(=O)c1cncc(-c2cnc3[nH]cc(-c4ccccc4C#N)c3c2)c1` has a GI50 of 0.615 ± 0.0362 µM (Ba/F3 BCR-ABL wild type; cell proliferation; 72 h).
`Cn1cc(-c2ccc(-c3cncc(Cl)c3N3CCC4(CCNC4=O)CC3)cc2)cn1`: “log2 fold change” -3.39 (COLO 205; gene expression, microarray, refers to: HIST4H4 mRNA; concentration not given, 2 h; reference: untreated cells).
The mRNA level of `Cc1nn(-c2nc3c(F)cc(F)cc3s2)c(O)c1C(c1ccc(C(F)(F)F)cc1)c1c(C)nn(-c2nc3c(F)cc(F)cc3s2)c1O` is reported as 1.01 (RAW-ISG; RT-qPCR, refers to: IFNB1; 10 µM, unit not given, with: poly(I:C); reference: vehicle).
`Cc1cc(Nc2ncc(Cl)c(Nc3ccccc3S(=O)(=O)C(C)C)n2)c(OC(C)C)cc1C1CCNCC1` — result for “log2 fold change”: -1.61 (CLB-GE; phosphoproteomics LC-MS/MS, refers to: AKT3 phosphorylation; 200 nM, 60 min; reference: untreated).
`O=c1ccn([C@@H]2O[C@H](CO)[C@@H](O)[C@H]2O)c(=O)[nH]1`: “T cell proliferation” 24.3% and 17% and 34.4% and 31.4% and 12.5% (activated human T cells; human; 31.6 nM).
`CC(=O)N1CC(C(=O)Nc2ccc([C@H]3[C@@H](F)[C@@H](F)C[C@@H](F)[C@H]3F)cc2)C1` has a hepatic clearance of 3.9 mL/min/kg (liver microsome stability; human liver microsomes; 1 µM, without NADPH).
Under “mRNA level, LS mean”, `c1ccc2[nH]ccc2c1` is recorded as 11.9 counts per million (HCT-8; RNA-seq, refers to: SPC24; concentration not given).
With `CCCCCCCC(=O)Oc1c(C)c(O)c(C(=O)/C=C/c2ccccc2)c(OC)c1C` the selectivity index was 1.03 (KKU-M213; SRB; reference: normal over KKU-M213 IC50).
With `Nc1ccc(-c2ccc3ncc4ccc(=O)n(-c5cccc(C(F)(F)F)c5)c4c3c2)cn1` the cell growth was 75.6% (SNU-1040; 330 nM, 3 days, 100% DMSO; reference: vehicle).
With `CCn1cc(-c2cc(Cn3ccnc3)cc3c2CCN([C@H](c2cc(OC)ccn2)C2CC2)C3=O)c(C(F)(F)F)n1` the EC50 was 26.7 µM (HMC18; cell growth; 120 h).
`CCCCCCCCCCCCCCCCCCOc1cccc(CC(=O)OCCC[N+](C)(C)C)c1` — result for “mean growth inhibition”: 14.3% (NSCLC panel (nine cell lines); 10 µM).
For `Cc1cccc(-c2[nH]c(CNc3ccccc3F)nc2-c2ccc3ncnn3c2)n1`, “surface marker level” read 59% (RPMI-8226; flow cytometry, refers to: CD2; concentration not given; reference: comparator compound alone).
The growth inhibition of `CC(=O)O[C@@]12CO[C@@H]1C[C@H](O)[C@@]1(C)C(=O)[C@H](O)C3=C(C)[C@@H](OC(=O)[C@H](O)[C@@H](NC(=O)OC(C)(C)C)c4ccccc4)C[C@@](O)([C@@H](OC(=O)c4ccccc4)[C@H]21)C3(C)C` is reported as under 15% (LNCaP C-81, compound-resistant; trypan blue exclusion; 3 nM, 72 h).
For `COc1cnc2cccc(N3CCc4c(cc(Cn5ccnc5C)cc4-c4cn(C)nc4C(F)(F)F)C3=O)c2c1`, the EC50 was 1.86 µM (SNU1; cell growth, inhibitor; 120 h).
The GI50 of `COc1ncccc1CN[C@H]1[C@@H](C)[C@@H]1c1ccccc1` (relative stereo) is reported as over 50 µM (THP-1 cells expressing NTR; MTS; 72 h).
`COc1cc(/C=C/C(=O)N2CCC=CC2=O)cc(OC)c1OC` has a mRNA level of 79.6 ± 49.9% (MDA-MB-468; quantitative RT-PCR, refers to: CDKN2A; 30 µM, 8 h; reference: untreated cells).
For `Nc1ncnc2nc(-c3ccc(N4CCOCC4)nc3)cc(-c3cccc(Br)c3)c12`, “T cell proliferation” read 95.4% and 99.2% and 88.2% (activated human T cells; human; 100 nM).
`[Cl-].[Cl-].[Os+2].c1cnc2c(c1)ccc1cccnc12.c1cnc2c(c1)ccc1cccnc12.c1cnc2c(c1)ccc1cccnc12` gave a TGI of 275 µM (SK-MEL-28; visible light, 1% O2 hypoxia).
The luminescence signal of `Cn1cc(-n2cnc3c(NCc4nc5cc(Cl)c(Cl)cc5[nH]4)nc(N4CCOCC4)nc32)cn1` is reported as 9770 a.u. and 12300 a.u. and 11500 a.u. (MDA-MB-231; cell viability, CellCounting-Lite; 222.2 nM, 37 °C; higher = more viable cells).
For `COc1cc(C(=O)N2CCC(N3CCN(C)CC3)CC2)ccc1Nc1ncc2c(n1)N(C)c1ccccc1C(=O)N2C`, the cell growth was 63% (SNU-1040; 330 nM, 3 days, 100% DMSO; reference: vehicle).
`CN(C)CCCC1(c2ccc(F)cc2)OCc2cc(C#N)ccc21` (stereo not drawn) has an EC10 of 10.4 µM (SH-SY5Y; neurite outgrowth inhibition, phase-contrast imaging; 24 h, nominal concentration).
`O=C1[C@H]2CCCN2[C@H](c2cccc3c2OCO3)N1c1ccc(Cl)c(Cl)c1` (racemic): “mutant huntingtin aggregates per cell” “no effect” (PC-12; 50 µM).
`CC(=O)c1nn(-c2ccc(Cl)cc2)/c(=N/N=C(\C)c2ccc(NC(=O)c3ccc(C)cc3)cc2)s1` has a viability of 27.1% (HepG2; 0.312 µM).
For `Cn1cc(Nc2nccc(-c3ccc4c(c3)CN(C3COC3)CC[C@H]4NC(=O)c3cn(C(C)(C)C)nn3)n2)cn1`, “pathway activation z-score” read 1.34 (mouse splenic B cells; refers to: Dopamine degradation; 30 mg/kg, IgD-activated in vivo; reference: vehicle, direction not given).
`COc1cc2ncnc(Nc3ccc(Oc4ccccc4)cc3C)c2cc1OC.O=C(O)C(F)(F)F`: “Bliss synergy score” 153% (SW-620 (KRAS G12V); resazurin; concentration not given, 72 h, with: trametinib; direction not given).
For `C=CCn1c(=O)c2cnc(Nc3ccc(N4CCN(C)CC4)cc3)nc2n1-c1ccc2c(n1)[C@@](O)(CC)CC2`, the pHH3-negative cells was 89.8% (MDA-MB-231; flow cytometry; concentration not given).
`CCc1cnc(N2CCC(c3nc(COc4ccc(-n5cnnn5)cc4)cs3)CC2)nc1` — result for “normalized enrichment score”: 1.22 (HEK-293T; RNA-seq GSEA, refers to: Hallmark apoptosis; concentration not given; direction not given).
With `O=C(C[C@@H](C(F)F)n1ccc(F)n1)N1CCC(O)(Cn2cnc3c(cnn3-c3ccc(F)cc3)c2=O)CC1` the viability was 93.6% (CHP-212 USP7 V517F knock-in clone; SRB; 0.08231 µM).
`CC(C)(c1ccc(O)cc1)c1ccc(O)cc1`: “spheroid area increase” 120% (HepG2 spheroids; planimetry; 2.5 µM, 0 to 24 h; reference: mean area of 72 h spheroids).
For `Cc1cnc2ccc3c(c2n1)N1CCC(O)N=C1N3C` (stereo not drawn), “relative colony forming efficiency” read 106 ± 3% (BALB/c 3T3; 0.5 µM; reference: solvent control).
`CCCCCCCCCCCCCCCCCCOc1ccccc1CC(=O)OCC[N+](CC)(CC)CC` — result for “mean growth inhibition”: 66.3% (NSCLC panel (nine cell lines); 10 µM).
For `Nc1cccc2c1C(=O)N(C1CCC(=O)NC1=O)C2=O` (stereo not drawn), “surface marker level” read 155% (RPMI-8226; flow cytometry, refers to: CD275; concentration not given; reference: comparator compound alone).
For `O=c1[nH]nc(OCCCc2ccc(Cl)cc2)c(NCc2cccnc2)c1Br`, “normalized enrichment score” read 1.24 (HEK-293T; RNA-seq GSEA, refers to: HALLMARK_HEDGEHOG_SIGNALING; concentration not given; direction not given).
`C=CC(=O)N1[C@@H](c2ccc3c(c2)OCO3)c2[nH]c3ccccc3c2C[C@H]1C(=O)NC` — result for “mean neuron degeneration”: 51.5% (rat DRG neurons; 3.333 µM, 48 h, with: vincristine 40 nM).
The EC50 of `C[C@]12CCCN1CC1=NNC(=O)c3cc(F)cc4[nH]c2c1c34` is reported as over 3 µM (HT-29 colorectal cancer cells; cell viability; concentration not given, with: with temozolomide).
With `CC(C)NCC(O)c1ccc(O)c(O)c1` (stereo not drawn) the sarcomere length was 1.8 µm (mouse ventricular cardiomyocytes; dose not given, 0.327 s).
`Clc1nc(NCc2ccco2)c2[nH]cnc2n1`: “Gb3 accumulation reduction” 15.7% (iPSC-derived cardiomyocytes, GLA mutant; 30 µM, 72 h; reference: untreated).
`COc1ccc(C(=O)C2CCN(CC(=O)N(Cc3nc4c(c(=O)[nH]3)COCC4)CC3CC3)CC2)cc1` — result for inhibition: “inhibited” (HEK293 STF; TCF reporter gene, luciferase; 2 µM, 24 h, with: 50% Wnt3a conditioned medium).
`CCCCN1C[C@H](O)[C@@H](O)[C@H](O)[C@H]1CO` has an IC50 of 6.02 µM (Sandhoff disease patient fibroblasts; glycosphingolipid lowering, LC-MS/MS, refers to: GM3 d18:1/18:0; human).
The selectivity index of `COc1c(C)c(OC)c(C(=O)/C=C/c2ccccc2)c(OC)c1C` is reported as 0.8 (KKU-M213; SRB; reference: normal over KKU-M213 IC50).
For `CC(=O)c1nn(-c2ccc(Cl)cc2)/c(=N/N=C(\C)c2ccc(NC(=O)c3ccccc3)cc2)s1`, the toxicity was 45.8% and 61.7% (HepG2; 0.156 µM).

Excerpt of the above:
`CC(=O)N1CC(C(=O)Nc2ccc([C@H]3[C@@H](F)[C@@H](F)C[C@@H](F)[C@H]3F)cc2)C1` has a hepatic clearance of 3.9 mL/min/kg (liver microsome stability; human liver microsomes; 1 µM, without NADPH).
Under “mRNA level, LS mean”, `c1ccc2[nH]ccc2c1` is recorded as 11.9 counts per million (HCT-8; RNA-seq, refers to: SPC24; concentration not given).
With `CCCCCCCC(=O)Oc1c(C)c(O)c(C(=O)/C=C/c2ccccc2)c(OC)c1C` the selectivity index was 1.03 (KKU-M213; SRB; reference: normal over KKU-M213 IC50).
